Assay results from different studies.
Compare with care: the assays were run in different laboratories. “And” joins repeats or separate records; there may be more than shown. In brackets after ≈: the same amount, converted by molar mass.
Organism: Staphylococcus aureus

| Structure (SMILES) | assay | system | setting | how to read | measurement | result |
| --- | --- | --- | --- | --- | --- | --- |
| CCCCCCCCCC(=O)N[C@@H](Cc1c[nH]c2ccccc12)C(=O)N[C@H](CC(N)=O)C(=O)N[C@@H](CC(=O)O)C(=O)N[C@@H]1C(=O)NCC(=O)N[C@@H](CCCN)C(=O)N[C@@H](CC(=O)O)C(=O)N[C@H](C)C(=O)N[C@@H](CC(=O)O)C(=O)NCC(=O)N[C@H](CO)C(=O)N[C@@H]([C@H](C)CC(=O)O)C(=O)N[C@@H](CC(=O)c2ccccc2N)C(=O)O[C@@H]1C | broth microdilution | VISA LIM strain 2, Mueller-Hinton broth, Mg2+ 10 mg/L | 16 h, with: Ca2+ 1.0 mM |  | MIC | 1 µg/mL (≈ 0.617 µM) |
| CC[C@H](C)[C@H](NC(=O)[C@H](C)NC(=O)[C@H](CCCCN)NC(=O)[C@H](CC(C)C)NC(=O)[C@H](C)NC(=O)[C@@H](NC(=O)[C@H](Cc1c[nH]cn1)NC(=O)[C@H](CC(C)C)NC(=O)[C@@H](NC(=O)[C@@H](NC(=O)[C@H](CCCCN)NC(=O)[C@H](C)NC(=O)[C@H](C)NC(=O)[C@H](CO)NC(=O)[C@H](CCCCN)NC(=O)[C@H](Cc1ccccc1)NC(=O)[C@@H](NC(=O)[C@H](CCCCN)NC(=O)[C@H](CC(C)C)NC(=O)[C@H](Cc1ccccc1)NC(=O)[C@H](CO)NC(=O)[C@H](CCCCN)NC(=O)[C@H](Cc1c[nH]c2ccccc12)NC(=O)[C@H](CCCCN)NC(C)=O)[C@@H](C)O)[C@@H](C)O)C(C)C)[C@@H](C)O)C(=O)N[C@@H](CO)C(=O)N[C@@H](CO)C(N)=O |  | ATCC 29213 |  |  | MBC90 | 8 µg/mL (≈ 2.73 µM) |
| CC[C@H](C)[C@H](NC(=O)[C@H](CCCCN)NC(=O)[C@H](CCCCN)NC(=O)[C@H](Cc1ccccc1)NC(=O)[C@@H](NC(=O)[C@@H](NC(=O)[C@H](CCCNC(=N)N)NC(=O)[C@H](Cc1ccccc1)NC(=O)[C@@H](NC(=O)[C@H](CCCCN)NC(=O)[C@H](CCCCN)NC(=O)[C@@H](N)CCSC)[C@@H](C)CC)C(C)C)[C@@H](C)CC)C(=O)N[C@@H](CC(C)C)C(=O)N[C@@H](CCCCN)C(=O)N[C@@H](CCCNC(=N)N)C(=O)N[C@@H](CC(C)C)C(=O)N[C@H](C(=O)N[C@H](C(=O)O)C(C)C)[C@@H](C)CC | broth microdilution | ATCC 25923 |  |  | MBC | 8 µg/mL (≈ 3.52 µM) |
| CN[C@H](CC(C)C)C(=O)N[C@H]1C(=O)N[C@@H](CC(N)=O)C(=O)N[C@H]2C(=O)N[C@H]3C(=O)N[C@H](C(=O)N[C@H](C(=O)O)c4cc(O)cc(O)c4-c4cc3ccc4O)[C@H](O)c3ccc(c(Cl)c3)Oc3cc2cc(c3O[C@@H]2O[C@H](CO)[C@@H](O)[C@H](O)[C@H]2O[C@H]2C[C@](C)(N)[C@H](O)[C@H](C)O2)Oc2ccc(cc2Cl)[C@H]1O |  | CAAS-2019-CAAS-2019-17 clinical blaZ-resistant isolate, PBS |  |  | MBC | 4 µg/mL (≈ 2.76 µM) |
| CN[C@H](CC(C)C)C(=O)N[C@H]1C(=O)N[C@@H](CC(N)=O)C(=O)N[C@H]2C(=O)N[C@H]3C(=O)N[C@H](C(=O)N[C@H](C(=O)O)c4cc(O)cc(O)c4-c4cc3ccc4O)[C@H](O)c3ccc(c(Cl)c3)Oc3cc2cc(c3O[C@@H]2O[C@H](CO)[C@@H](O)[C@H](O)[C@H]2O[C@H]2C[C@](C)(N)[C@H](O)[C@H](C)O2)Oc2ccc(cc2Cl)[C@H]1O |  | MRSA strain 5 |  |  | MIC | 1 µg/mL (≈ 0.69 µM) |
| C=CC[C@@H]1c2ccc(OC)c(OC)c2CN2CCc3cc4c(cc3[C@H]12)OCO4 |  | P2rx7 A312V/A312V mice, skin wound infection | dose not given, day 7 | relative to: day 0 | relative wound size | 0.36 and 0.81 and 0.74 and 0.97 and 0.39 and 0.52 |
| CC(=O)NC[C@H]1CN(c2ccc(N3CCOCC3)c(F)c2)C(=O)O1 |  | MRSA strain 4, vancomycin-induced | 20 generations |  | MIC | 0.5 µg/mL (≈ 1.48 µM) |
| Cc1c2c(nn1C)CSCc1cc(n(C)n1)CSc1cc(c3ccccc3c1)OCCCc1c(C(=O)O)n(C)c3c-2c(Cl)ccc13 | label-free quantitative proteomics, measured: TdcB protein | SA113 | 3.125 µM | relative to: DMSO | downregulation | 4.7 fold |
| CC(C)C[C@H](NC(=O)CNC(=O)CNC(=O)CNC(=O)[C@H](Cc1ccc(O)cc1)NC(=O)[C@H](CC(C)C)NC(=O)[C@@H](NC(=O)CNC(=O)[C@H](Cc1ccc(O)cc1)NC(=O)[C@H](CCCCN)NC(=O)[C@H](CC(N)=O)NC(=O)[C@@H](NC(=O)[C@H](CCCCN)NC(=O)[C@H](Cc1c[nH]c2ccccc12)NC(=O)CN)[C@@H](C)O)[C@@H](C)O)C(=O)N[C@@H](CCCCN)C(=O)N[C@@H](CCCCN)C(=O)N[C@@H](CC(C)C)C(=O)N[C@@H](CC(C)C)C(=O)N[C@@H](CC(C)C)C(=O)N[C@@H](CC(C)C)C(=O)N[C@@H](CC(C)C)C(=O)N[C@@H](CCCCN)C(=O)N[C@@H](CCCCN)C(=O)N[C@@H](CC(C)C)C(=O)NCC(=O)O |  | USA300 | with: 2 mM CaCl2 |  | MIC | 32 µg/mL (≈ 11.2 µM) |
